# Published values of several laboratories.
# Protein sequences, listed by entry. Tags and fused reporters are not part of them. Residues count along the entry.
# UniProt P25084, whole entry: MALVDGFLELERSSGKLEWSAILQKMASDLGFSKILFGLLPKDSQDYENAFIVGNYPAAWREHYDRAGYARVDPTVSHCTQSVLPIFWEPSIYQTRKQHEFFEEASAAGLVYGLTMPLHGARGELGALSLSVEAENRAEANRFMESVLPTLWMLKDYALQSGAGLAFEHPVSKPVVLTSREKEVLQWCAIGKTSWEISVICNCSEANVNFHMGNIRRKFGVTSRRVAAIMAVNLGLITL
# UniProt Q9WMX2, 2420-3010 S2701T limits assumed: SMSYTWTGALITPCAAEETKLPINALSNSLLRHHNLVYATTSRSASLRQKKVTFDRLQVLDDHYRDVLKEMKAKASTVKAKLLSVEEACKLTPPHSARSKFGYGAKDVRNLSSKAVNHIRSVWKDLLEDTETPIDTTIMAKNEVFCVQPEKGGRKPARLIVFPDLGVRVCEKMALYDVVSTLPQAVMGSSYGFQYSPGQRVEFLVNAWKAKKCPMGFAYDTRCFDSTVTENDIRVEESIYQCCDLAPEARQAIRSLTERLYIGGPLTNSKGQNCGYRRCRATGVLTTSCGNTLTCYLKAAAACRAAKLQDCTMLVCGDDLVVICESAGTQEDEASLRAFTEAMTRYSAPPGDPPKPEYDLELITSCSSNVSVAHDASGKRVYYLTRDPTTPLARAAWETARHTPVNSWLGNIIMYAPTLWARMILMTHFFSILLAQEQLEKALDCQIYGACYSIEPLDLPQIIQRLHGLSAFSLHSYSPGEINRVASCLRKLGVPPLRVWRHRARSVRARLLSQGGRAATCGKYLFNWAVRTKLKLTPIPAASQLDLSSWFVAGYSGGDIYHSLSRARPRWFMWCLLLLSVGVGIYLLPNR
# UniProt P28335, 33-458 limits assumed: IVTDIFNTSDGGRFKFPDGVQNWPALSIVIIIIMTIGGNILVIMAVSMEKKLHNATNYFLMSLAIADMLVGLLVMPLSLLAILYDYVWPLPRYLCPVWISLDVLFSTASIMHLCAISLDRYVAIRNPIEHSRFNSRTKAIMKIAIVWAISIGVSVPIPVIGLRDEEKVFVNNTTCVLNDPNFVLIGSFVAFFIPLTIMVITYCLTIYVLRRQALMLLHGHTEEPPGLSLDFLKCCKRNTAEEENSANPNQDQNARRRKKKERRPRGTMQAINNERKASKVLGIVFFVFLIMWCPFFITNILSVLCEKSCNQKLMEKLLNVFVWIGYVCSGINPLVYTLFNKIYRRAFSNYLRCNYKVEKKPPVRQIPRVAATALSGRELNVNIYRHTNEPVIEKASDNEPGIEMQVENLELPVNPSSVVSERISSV
# UniProt Q8RLA6, 21-275 limits assumed: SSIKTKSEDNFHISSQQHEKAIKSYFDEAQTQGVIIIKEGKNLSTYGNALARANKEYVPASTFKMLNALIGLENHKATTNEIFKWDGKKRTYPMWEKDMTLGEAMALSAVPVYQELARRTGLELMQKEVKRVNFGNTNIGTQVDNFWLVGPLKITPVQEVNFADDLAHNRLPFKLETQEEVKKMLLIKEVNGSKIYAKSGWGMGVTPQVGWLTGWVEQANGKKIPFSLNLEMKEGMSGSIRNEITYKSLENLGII
# UniProt A0A0D5YGP3, 1-542: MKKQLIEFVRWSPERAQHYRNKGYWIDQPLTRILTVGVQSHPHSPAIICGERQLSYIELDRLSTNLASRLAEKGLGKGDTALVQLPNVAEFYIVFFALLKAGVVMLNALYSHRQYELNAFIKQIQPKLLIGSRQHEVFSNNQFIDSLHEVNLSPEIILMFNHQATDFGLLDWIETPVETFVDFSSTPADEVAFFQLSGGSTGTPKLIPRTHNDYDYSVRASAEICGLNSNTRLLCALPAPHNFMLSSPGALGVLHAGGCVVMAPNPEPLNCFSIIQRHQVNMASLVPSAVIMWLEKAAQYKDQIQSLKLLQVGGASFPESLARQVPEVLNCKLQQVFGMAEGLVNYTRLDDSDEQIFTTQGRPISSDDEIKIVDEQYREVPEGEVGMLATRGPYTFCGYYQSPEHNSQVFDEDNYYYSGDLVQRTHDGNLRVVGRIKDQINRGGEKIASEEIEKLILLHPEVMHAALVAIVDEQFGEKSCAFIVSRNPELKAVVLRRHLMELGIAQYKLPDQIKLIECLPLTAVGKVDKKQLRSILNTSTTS
# UniProt P23975, whole entry: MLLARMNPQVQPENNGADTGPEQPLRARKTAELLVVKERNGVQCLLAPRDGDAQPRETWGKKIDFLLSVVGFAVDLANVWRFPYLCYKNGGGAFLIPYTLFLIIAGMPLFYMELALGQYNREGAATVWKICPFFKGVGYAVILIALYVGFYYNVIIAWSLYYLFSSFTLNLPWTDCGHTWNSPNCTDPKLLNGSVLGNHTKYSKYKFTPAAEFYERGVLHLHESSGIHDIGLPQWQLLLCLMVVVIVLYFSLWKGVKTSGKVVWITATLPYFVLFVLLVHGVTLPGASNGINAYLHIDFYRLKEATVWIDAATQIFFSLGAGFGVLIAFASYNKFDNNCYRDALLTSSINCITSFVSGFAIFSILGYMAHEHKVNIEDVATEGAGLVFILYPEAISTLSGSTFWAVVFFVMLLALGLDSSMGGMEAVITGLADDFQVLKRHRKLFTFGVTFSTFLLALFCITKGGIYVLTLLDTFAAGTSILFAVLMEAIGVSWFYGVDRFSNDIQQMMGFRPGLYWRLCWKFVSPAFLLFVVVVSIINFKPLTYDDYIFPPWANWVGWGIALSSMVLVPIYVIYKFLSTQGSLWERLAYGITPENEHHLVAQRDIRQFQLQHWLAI
# UniProt P30291, whole entry: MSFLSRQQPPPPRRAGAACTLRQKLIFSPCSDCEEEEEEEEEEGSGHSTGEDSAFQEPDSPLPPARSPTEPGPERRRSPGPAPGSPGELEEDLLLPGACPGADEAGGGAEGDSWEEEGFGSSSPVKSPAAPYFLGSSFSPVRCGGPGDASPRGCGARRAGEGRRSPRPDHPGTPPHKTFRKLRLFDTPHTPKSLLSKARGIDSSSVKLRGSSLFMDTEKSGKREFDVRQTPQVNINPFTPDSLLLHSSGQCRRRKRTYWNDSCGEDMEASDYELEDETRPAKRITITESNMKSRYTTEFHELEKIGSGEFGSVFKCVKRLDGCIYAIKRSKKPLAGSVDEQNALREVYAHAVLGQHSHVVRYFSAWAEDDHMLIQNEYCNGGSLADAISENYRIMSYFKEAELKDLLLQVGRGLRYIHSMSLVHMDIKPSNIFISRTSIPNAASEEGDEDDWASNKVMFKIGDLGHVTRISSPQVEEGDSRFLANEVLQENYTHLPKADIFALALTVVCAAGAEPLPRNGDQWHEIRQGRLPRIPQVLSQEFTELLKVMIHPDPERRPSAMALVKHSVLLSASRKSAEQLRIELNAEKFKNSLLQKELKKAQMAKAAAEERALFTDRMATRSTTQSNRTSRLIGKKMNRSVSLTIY
# UniProt Q96SW2, whole entry: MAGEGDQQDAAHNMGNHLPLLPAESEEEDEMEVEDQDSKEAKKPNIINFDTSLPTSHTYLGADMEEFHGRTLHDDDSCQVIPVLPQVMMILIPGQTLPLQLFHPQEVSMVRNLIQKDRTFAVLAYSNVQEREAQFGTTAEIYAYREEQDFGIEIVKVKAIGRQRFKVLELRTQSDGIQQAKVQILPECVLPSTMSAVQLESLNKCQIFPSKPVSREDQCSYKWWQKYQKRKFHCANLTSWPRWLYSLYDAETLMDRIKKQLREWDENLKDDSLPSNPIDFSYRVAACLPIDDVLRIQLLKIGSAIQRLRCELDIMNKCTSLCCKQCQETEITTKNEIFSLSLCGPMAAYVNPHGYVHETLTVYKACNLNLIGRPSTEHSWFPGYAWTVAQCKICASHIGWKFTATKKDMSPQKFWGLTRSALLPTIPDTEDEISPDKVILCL
# UniProt Q5U3Y7, whole entry: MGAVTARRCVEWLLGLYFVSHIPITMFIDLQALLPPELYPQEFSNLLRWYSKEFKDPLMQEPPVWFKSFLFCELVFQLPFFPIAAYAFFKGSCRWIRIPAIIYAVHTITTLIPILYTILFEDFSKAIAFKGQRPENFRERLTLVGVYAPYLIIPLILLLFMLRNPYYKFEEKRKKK
# UniProt O60928, whole entry M125R: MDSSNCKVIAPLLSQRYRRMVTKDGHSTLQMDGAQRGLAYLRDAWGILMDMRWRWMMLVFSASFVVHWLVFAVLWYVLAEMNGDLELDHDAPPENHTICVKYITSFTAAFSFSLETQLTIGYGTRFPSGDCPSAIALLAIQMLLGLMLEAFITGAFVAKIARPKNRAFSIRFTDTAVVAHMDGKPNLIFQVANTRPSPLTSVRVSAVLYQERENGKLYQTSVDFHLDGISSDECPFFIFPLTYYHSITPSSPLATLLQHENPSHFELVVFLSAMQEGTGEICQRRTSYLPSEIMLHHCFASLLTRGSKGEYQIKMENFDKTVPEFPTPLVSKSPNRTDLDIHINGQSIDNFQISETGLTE
# UniProt Q16531, whole entry partner: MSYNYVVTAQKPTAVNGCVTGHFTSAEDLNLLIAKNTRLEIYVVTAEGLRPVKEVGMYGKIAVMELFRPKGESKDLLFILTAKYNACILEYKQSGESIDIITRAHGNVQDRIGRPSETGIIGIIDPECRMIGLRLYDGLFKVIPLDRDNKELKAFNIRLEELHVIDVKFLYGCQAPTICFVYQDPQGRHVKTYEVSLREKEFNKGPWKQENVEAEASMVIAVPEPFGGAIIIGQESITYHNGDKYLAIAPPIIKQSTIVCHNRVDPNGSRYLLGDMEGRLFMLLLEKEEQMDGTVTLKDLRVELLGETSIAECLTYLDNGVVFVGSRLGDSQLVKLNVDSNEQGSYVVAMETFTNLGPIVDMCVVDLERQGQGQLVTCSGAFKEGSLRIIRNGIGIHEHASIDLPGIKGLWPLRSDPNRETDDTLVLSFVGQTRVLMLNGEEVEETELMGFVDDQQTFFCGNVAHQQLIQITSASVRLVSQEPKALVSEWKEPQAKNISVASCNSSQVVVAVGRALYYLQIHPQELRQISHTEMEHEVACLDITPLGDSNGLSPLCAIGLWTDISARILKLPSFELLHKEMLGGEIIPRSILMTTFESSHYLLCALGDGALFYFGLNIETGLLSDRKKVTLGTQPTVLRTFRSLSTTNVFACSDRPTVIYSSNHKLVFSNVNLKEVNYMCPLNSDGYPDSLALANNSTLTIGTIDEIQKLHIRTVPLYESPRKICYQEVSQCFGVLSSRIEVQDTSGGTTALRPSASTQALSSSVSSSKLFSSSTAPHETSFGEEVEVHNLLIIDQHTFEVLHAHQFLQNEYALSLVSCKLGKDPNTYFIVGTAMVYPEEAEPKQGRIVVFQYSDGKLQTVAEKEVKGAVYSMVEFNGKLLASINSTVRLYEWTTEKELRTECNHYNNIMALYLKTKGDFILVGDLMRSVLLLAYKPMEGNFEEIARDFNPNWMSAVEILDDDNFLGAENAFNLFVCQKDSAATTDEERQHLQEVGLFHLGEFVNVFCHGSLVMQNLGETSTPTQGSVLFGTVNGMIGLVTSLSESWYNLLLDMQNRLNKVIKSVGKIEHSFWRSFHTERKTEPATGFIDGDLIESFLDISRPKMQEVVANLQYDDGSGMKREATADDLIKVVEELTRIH
# Each line is one published result; not all experiments were run side by side. Values joined by “and” are separate records of one study, mostly repeats; a detail may differ. Numbers after ± are the reported error.
# lasR: Transcriptional activator protein LasR (lasR, Pseudomonas aeruginosa, UniProt P25084)
SMILES,tested on,test,system,conditions,scale,endpoint,value
O=c1ccn([C@@H]2O[C@H](COP(=O)(O)OP(=O)(O)OP(=O)(O)O)[C@@H](O)[C@]2(F)Br)c(=O)[nH]1,"Genome polyprotein, NS5B polymerase (Hepatitis C virus genotype 1b, UniProt Q9WMX2, S2701T)","polymerase activity, inhibitor",genotype 1b S282T,,,IC50,45000 nM
COc1ccc(CN[C@@H]2CO[C@H](C(c3ccccc3)c3ccccc3)C[C@H]2O)cc1,"HTR2C (Homo sapiens, UniProt P28335)",radioligand binding,,"10 µM, with: [3H]mesulergine",,inhibition,30.6%
O=C(NCc1cc(Br)cc(Br)c1OC(=O)c1ccccc1Cl)c1ccccc1Cl,lasR,"reporter gene, agonist",Escherichia coli JLD271 lasI-lacZ reporter,,,EC50,7.99 nM
CC(C)C[C@@H](NC(=O)[C@H](NC(=O)[C@H]1CCCN1)[C@H](C)O)C(=O)N[C@H](Cc1c[nH]cn1)C(=O)N[C@@H](C(=O)N[C@H](Cc1c[nH]cn1)C(=O)N[C@H](CC(N)=O)C(=O)N[C@H](CCCNC(=N)N)C(=O)N[C@H](CCCNC(=N)N)C(=O)N[C@H](CCCNC(=N)N)C(=O)N[C@H](CCCNC(=N)N)C(=O)N[C@H](CCCNC(=N)N)C(N)=O)[C@H](C)O,,,"healthy human, plasma",2 320 mg daily,relative to: Css over C24h day 1,accumulation ratio,3
COc1c(Br)cc(Br)cc1CNC(=O)c1ccccc1[N+](=O)[O-],lasR,"reporter gene, agonist",Escherichia coli JLD271 lasI-lacZ reporter,,,EC50,> 60 nM
CCCCCCCCCCCCNC(=O)N[C@H](C(=O)N[C@H]1/C=C/CCNC(=O)/C=C/[C@H](C)NC1=O)C(C)C,"PSMB5 (Homo sapiens, UniProt P28074)","chymotrypsin-like activity, inhibitor, Proteasome-Glo",U-266,24 h,,Ki,54.6 ± 10.4 nM
O=S(=O)(O)c1ccc2cc(S(=O)(=O)O)ccc2c1,"Beta-lactamase (blaOXA-33, Acinetobacter baumannii, UniProt Q8RLA6)","enzyme activity, inhibitor",,"enzyme 0.2 nM, with: nitrocefin 30 µM",,Ki,150000 nM and > 100000 nM
O=C(NS(=O)(=O)OC[C@H]1O[C@@H](n2cnc3c(NCc4ccccc4)ncnc32)[C@H](O)[C@@H]1O)c1ccccc1O,"2,3-dihydroxybenzoate-AMP ligase BasE (Acinetobacter baumannii, UniProt A0A0D5YGP3)",binding,,,,Kd,87.6 ± 18.2 nM
C[C@H](CS)C(=O)N[C@H](Cc1c[nH]c2ccccc12)C(=O)O,Enterobacter aerogenes,,VIM-1 producing,"10 µM, with: meropenem",,MIC of meropenem,8 µg/mL
C[C@@H]1CN(C)CCN1c1nc(-c2ccc(F)cc2)cs1,"SLC6A2 (Homo sapiens, UniProt P23975)",,,,,Ki,3500 nM
CN1C(=O)CCC(N2Cc3cc(-c4nc5ccccn5c4NC(C)(C)C)ccc3C2=O)C1=O (stereo not shown),"WEE1/CRBN (Homo sapiens, UniProt P30291+Q96SW2)","degrader, HiBiT luciferase",Jurkat (HiBiT-tagged),5 h,,DC50,> 10000 nM
NCCNCCSc1ccccc1,,,n-octanol/phosphate buffer,"50 µg/mL, pH 7.4",,logP,-0.59 ± 0.05
O[C@H](c1ccc(F)cc1)C(F)(F)CCN1CCC(O)(c2ccc(Cl)cc2)CC1 (racemic),"Tmem97 (Rattus norvegicus, UniProt Q5U3Y7)",,,,,Ki,24.1 ± 2.8 nM
NC[C@@H](NC[C@@H]1CCCN1C[C@@H](CO)NC[C@@H](NCCc1ccc(-c2ccccc2)cc1)c1ccccc1)c1ccccc1,Escherichia coli,bacterial growth,,"16 µM, fold shift of IC90, with: amikacin",,potentiation of amikacin,1 fold
O=C(NCc1cc(Br)cc(Br)c1O)c1ccccc1[N+](=O)[O-],lasR,"reporter gene, agonist",Escherichia coli JLD271 lasI-lacZ reporter,,,EC50,> 900 nM
O=C(NC1CCN(Cc2cc(Cl)c3cccnc3c2O)CC1)c1cccc(Cl)c1,"KCNJ13 (Homo sapiens, UniProt O60928, M125R)","ion current, inhibitor, thallium flux",T-REx-HEK293,,,IC50,3100 nM
